Measured values of several laboratories.
Compare with care: the assays were run in different laboratories. ± marks the error that the study gave.

| SMILES | cell line | test | setting | scale | endpoint | value |
| --- | --- | --- | --- | --- | --- | --- |
| CC12OOC(C)(OO1)C2CCC(=O)NCCNc1ccnc2cc(Cl)ccc12 (stereo not shown) | CCRF-CEM | cell growth or viability, resazurin | 10 µM, 48 h |  | inhibition | 52.8% |
| Cc1cc2c(C(=O)Cc3ccccc3)c(O)c(O)cc2c(O)c1-c1c(C)cc2c(C(=O)Cc3ccccc3)c(O)c(O)cc2c1O | MEF wild type | annexin V/PI staining | 10 µM |  | cell death | 80% |
| CCCCCCCCCCCCCC(=O)NCC(=O)N[C@@H](CCCNC(=N)N)C(=O)N[C@@H](Cc1c[nH]c2ccccc12)C(=O)N[C@@H](CCCCN)C(=O)N[C@H](C(=O)N[C@@H](Cc1ccccc1)C(=O)N[C@@H](CCCCN)C(=O)N[C@@H](CCCCN)C(=O)N[C@H](C(=O)N[C@@H](CCC(=O)O)C(=O)N[C@@H](CCCCN)C(=O)N[C@H](C(=O)NCC(=O)N[C@@H](CCC(N)=O)C(=O)N[C@@H](CC(N)=O)C(=O)N[C@H](C(=O)N[C@@H](CCCNC(=N)N)C(=O)N[C@@H](CC(=O)O)C(=O)NCC(=O)N[C@H](C(=O)N[C@H](C(=O)N[C@@H](CCCCN)C(=O)N[C@@H](C)C(=O)NCC(=O)N1CCC[C@H]1C(=O)N[C@@H](C)C(=O)N[C@H](C(=O)N[C@@H](C)C(=O)N[C@H](C(=O)N[C@H](C(=O)NCC(=O)N[C@@H](CCC(N)=O)C(=O)N[C@@H](C)C(=O)N[C@@H](C)C(=O)N[C@H](C(=O)N[C@H](C(N)=O)[C@@H](C)CC)[C@@H](C)O)C(C)C)C(C)C)C(C)C)C(C)C)[C@@H](C)CC)[C@@H](C)CC)C(C)C)[C@@H](C)CC)[C@@H](C)CC | K562/MDR | Western blot, measured: procaspase 9 | 2 µM, 16 h |  | procaspase activation | ~55% |
| CC[C@H](C)[C@H](NC(C)=O)C(=O)N[C@@H](CC(N)=O)C(=O)N[C@@H](Cc1c[nH]c2ccccc12)C(=O)N[C@@H](CCC(=O)O)C(=O)NCC(=O)N[C@H](C(=O)N[C@@H](C)C(=O)N[C@@H](Cc1c[nH]cn1)C(=O)N[C@@H](CCSC)C(=O)N[C@@H](C)C(=O)N[C@@H](CCCCN)C(=O)N[C@@H](CCCCN)C(=O)N[C@@H](CC(C)C)C(=O)N[C@@H](CC(C)C)C(N)=O)[C@@H](C)CC | human erythrocytes | haemolysis | with: Ni(II) 300 µM |  | Hill coefficient | 2.2 ± 0.1 |
| CCCN1CCNC1=[S+][Ag-3]([O][N+](=O)[O-])([P+](c1ccccc1)(c1ccccc1)c1ccccc1)[P+](c1ccccc1)(c1ccccc1)c1ccccc1 | MG-63 osteosarcoma | MTT | 50 µM |  | cell killing | ≤ 85% |
| O=C1[O][Pt]2([OH])([OH])([NH]C3CCCCC3[NH]2)[O]C1=O (stereo not shown) | HUVEC | tube formation | IC10, 16 h |  | tube node disruption | 9% |
| CC12OOC(C)(OO1)C2CCC(=O)OCCNc1ccnc2cc(Cl)ccc12 (stereo not shown) | MOLT-4 | cell growth or viability, resazurin | 10 µM, 48 h |  | inhibition | 37.7% |
| CC[C@H](C)[C@H](NC(C)=O)C(=O)N[C@@H](CC(N)=O)C(=O)N[C@@H](Cc1c[nH]c2ccccc12)C(=O)N[C@@H](CCCCN)C(=O)NCC(=O)N[C@H](C(=O)N[C@@H](C)C(=O)N[C@@H](C)C(=O)N[C@@H](CCSC)C(=O)N[C@@H](C)C(=O)N[C@@H](CCCCN)C(=O)N[C@@H](CCCCN)C(=O)N[C@@H](CC(C)C)C(=O)N[C@@H](CC(C)C)C(N)=O)[C@@H](C)CC | human erythrocytes | hemolysis | no metal added |  | Hill coefficient | 1.6 ± 0.1 |
| CN1CCc2[nH]c3ccc(Cl)cc3c2CC1 | rat embryonic cortical neurons | Sholl analysis | dose not given, DIV6 | baseline: vehicle | dendritic arbor complexity | not toxic |
| CC(C)C[C@@H](NC(=O)CCNc1ccc([N+](=O)[O-])c2nonc12)C(=O)N[C@H](CC(C)C)C(=O)N[C@H](CC(C)C)C(=O)N[C@H](CC(C)C)C(=O)N[C@H](Cc1ccc(OP(=O)(O)O)cc1)C(=O)O | SJSA-1 RFP and HS5 co-culture |  | concentration not given, 4 h |  | SJSA-1 cell fraction | 0.98% |
| CC(C)[C@@H]1NC(=O)[C@H](CCCCN)NC(=O)[C@@H](Cc2c[nH]c3ccccc23)NC(=O)[C@H](Cc2ccc(O)cc2)NC(=O)[C@@H](NC(=O)[C@H](N)Cc2ccc3ccccc3c2)CSSC[C@@H](C(=O)N[C@@H](Cc2ccc3ccccc3c2)C(N)=O)NC1=O | NCI-H1299-BRS-3 | clonogenic assay in agarose | 10 µM |  | colony number | 30 ± 3 |
| CC/C=C\C/C=C\C/C=C\C/C=C\C/C=C\C/C=C\CCC(=O)Nc1ccn(C2OC(CO)C(O)C2(F)F)c(=O)n1 (stereo not shown) | SF-295 | NCI60 screen |  |  | CC50 | 37500 nM |
| CC12CCC3(CCC(=O)NCCNc4ccnc5cc(Cl)ccc45)C(C)(OOC3(C)O1)O2 | RPMI-8226 | cell growth or viability, resazurin | 10 µM, 48 h |  | inhibition | 19.6% |
| O=C(O)CCC(NP(=O)(O)OCCC[C@@H](NC(=O)CCC(NC(=O)CCCCCNC(=O)c1ccc([18F])cc1)C(=O)O)C(=O)O)C(=O)O (stereo partly shown) | CWR22Rv1 |  | 2 h |  | surface-bound fraction | 15.8 ± 2.3% |
| C=CC(=O)Oc1ccc(Cl)cc1C(=O)Nc1ccc([N+](=O)[O-])cc1Cl | C4-2B MDVR cells | ELISA | 0.5 and 1.0 µM |  | cell death | increased |
| CNC(=O)c1cc(Oc2ccc(NC(=O)c3ccc(-c4cccc(OC(=O)CCC(=O)OC5OC6OC7(C)CCC8C(C)CCC(C5C)C68OO7)c4)cn3)cc2)ccn1 (stereo not shown) | Hep3B and LO2 | cell viability, MTT | 72 h | baseline: IC50 LO2 over IC50 Hep3B | selectivity ratio | 7.5 |

| SMILES | cell line | test | setting | scale | endpoint | value |
| --- | --- | --- | --- | --- | --- | --- |
| CCCC[C@H](O)C[C@@H](C)C[C@H](NC(=O)[C@@H]1C[C@H](C)CN1C(=O)/C=C/[C@@H](C)CC)C(=O)N[C@H](C(=O)NC(C)(C)C(=O)N[C@@H](CC(C)C)C(=O)N[C@@H](CC(C)C)C(=O)NC(C)(C)C(=O)NC(C)(C)C(=O)NCCC(=O)N[C@@H](C)CN(C)C)[C@H](O)C(C)C | MDA-MB-453 | cell growth or viability, SRB | 48 h |  | GI50 | 3.7 nM |
| CC12OOC(C)(OO1)C2CCC(=O)NCCCNc1ccnc2cc(Cl)ccc12 (stereo not shown) | MOLT-4 | cell growth or viability, resazurin | 10 µM, 48 h |  | inhibition | 30.8% |
| CNC(=O)c1cc(Oc2ccc(NC(=O)CCC(=O)OC3OC4OC5(C)CCC6C(C)CCC(C3C)C46OO5)cc2)ccn1 (stereo not shown) | Hep3B and LO2 | cell viability, MTT | 72 h | baseline: IC50 LO2 over IC50 Hep3B | selectivity ratio | 2.1 |
| O=C(CN1C(=O)S/C(=C\c2ccccc2Br)C1=O)Nc1ccc(C(=O)Nc2ccc(F)cc2)cc1 | HT-29 | MTT |  | baseline: IC50 Vero over IC50 HT-29 | selectivity index | 22.1 |
| CNC(=O)c1cc(Oc2ccc(NC(=O)c3cc(-c4ccc(COC(=O)CCC(=O)OC5OC6OC7(C)CCC8C(C)CCC(C5C)C68OO7)cc4)ccn3)cc2)ccn1 (stereo not shown) | Hep3B and LO2 | cell viability, MTT | 72 h | baseline: IC50 LO2 over IC50 Hep3B | selectivity ratio | 4.4 |
| Cc1cc(O)cc(-c2nc(Nc3cc(C(F)(F)F)cc(C(F)(F)F)c3)ncc2-c2ccnc(Cl)c2)c1 | HT-29 |  | 10 µM, 72 h | baseline: untreated cells | viability decrease | > 50% |
| CC1CCC2C(C)C(OC(=O)CCC(=O)N(CCCc3cn(-c4ccc(CN5CCOCC5)cc4)nn3)CCNc3ccnc4cc(Cl)ccc34)OC3OC4(C)CCC1C32OO4 (stereo not shown) | MOLT-4 | cell growth or viability, resazurin | 10 µM, 48 h |  | inhibition | 29.8% |
| CC(C)CC(O)(CC(C)C)c1cn(C(=O)N2CCCC2)nn1 | mouse T-cells | N-terminal labeled proteins, N-terminal enrichment proteomics, measured: LARP1 | 1 nM, 6 h | baseline: DMSO | SILAC ratio | 2.57 ± 0.44 |
| C[C@H]1C(OCCCCCCCC[P+](c2ccccc2)(c2ccccc2)c2ccccc2)O[C@@H]2O[C@@]3(C)CCC4[C@H](C)CCC1[C@]42OO3 (stereo partly shown) | J82 | PI flow cytometry | 100 nM, 48 h |  | G0/G1 phase cells | 73.1% |
| CCN(CC)CCOc1ccc(-c2nnn(Cc3ccc(OC)cc3)c2N)cc1 | HEI-193 |  | concentration not given, 3 days |  | cell proliferation | decreased |
| COc1ccc(C(=O)CCl)cc1 | AP1-luc HEK293 | AP1 reporter gene, activator, luciferase | with: FBS stimulation | baseline: control | fold increase | ~4 fold |
| C[C@H](OP(=O)(O)O)[C@H]1NC(=O)[C@H](CCCNC(=N)N)NC(=O)[C@H](CCCNC(=N)N)NC(=O)[C@H](CCCNC(=N)N)NC(=O)[C@H](CCC(N)=O)NC(=O)[C@H](CCCNC(=N)N)NC(=O)[C@H](CCCNC(=N)N)NC(=O)[C@H](Cc2ccc3ccccc3c2)NC(=O)[C@@H]2CCCCN2C1=O | BT-474 | measured: PML and SMRT | 2.5 and 5.0 µM |  | protein level | increased |
| CCC(=O)CCC[C@H](C)C[C@H](NC(=O)[C@@H]1C[C@H](C)CN1C(=O)/C=C/[C@@H](C)CC)C(=O)N[C@H](C(=O)NC(C)(C)C(=O)N[C@@H](CC(C)C)C(=O)N[C@@H](CC(C)C)C(=O)NC(C)(C)C(=O)NC(C)(C)C(=O)NCCC(=O)N[C@@H](C)CNC)[C@H](O)C(C)C | MDA-MB-453 | cell growth or viability, SRB | 48 h |  | GI50 | 5.4 nM |
| CC[C@H](C)[C@H](NC(=O)[C@H](CC(N)=O)NC(=O)[C@H](CCCCN)NC(=O)[C@H](Cc1ccccc1)NC(=O)[C@H](Cc1ccccc1)NC(=O)[C@H](Cc1c[nH]cn1)NC(=O)[C@@H](NC(=O)[C@@H](NC(=O)[C@@H]1CCCN1C(=O)[C@@H](N)CC(N)=O)C(C)C)C(C)C)C(=O)N[C@H](C(=O)N[C@H](C(=O)N[C@@H](C)C(=O)O)[C@@H](C)O)C(C)C | T cell clone Ob.3D1 | T cell proliferation, agonist, [3H]thymidine incorporation | 72 h, peptide-pulsed APC, with: EBV-transformed B cells DR2/DQ6 as APC |  | EC50 | 3800 nM |
| C[C@@H]1O[C@H]2O[C@@H]3C4(O)C(=O)c5cccc(O)c5C(=O)C4(O)O[C@]3(C)[C@]21O (stereo partly shown) | A549 and HFF | MTT |  | baseline: CC50 HFF over EC50 A549 | selectivity index | 1.51 |
